{"data": "Results pooled from the literature", "note": "Every numbered part comes from another study and shows a few of its results, in no order. Positions count from the first letter of the parent shown."}
{"data": "Study 1", "target": "CCNE1, cyclin fold, Cln2 fusion (human)", "technique": "yeast growth competition, sequencing", "matrix": "yeast", "setting": "weak parent motif", "baseline": "not given", "reading": "higher = stronger binding", "parent": "CENPC docking peptide (human); VKTKKRLNFDDKV"}
{"Change": "VKTKRRLNFDDKV [K5R]", "normalised enrichment score": 4.38}
{"Change": "VKTKKRLNFDDAV [K12A]", "normalised enrichment score": 1.64}
{"Change": "AKTKKRLNFDDKV [V1A]", "normalised enrichment score": 0.549}
{"Change": "VKTAKRLNFDDKV [K4A]", "normalised enrichment score": 0.569}
{"Change": "VKAKKRLNFDDKV [T3A]", "normalised enrichment score": 3.21}
{"Change": "VKTKKRLNFADKV [D10A]", "normalised enrichment score": 0.617}
{"Change": "VKTKARLNFDDKV [K5A]", "normalised enrichment score": 0.176}
{"data": "Study 2", "target": "Histone acetyltransferase KAT6A, both winged helices, GST fusion (KAT6A, Homo sapiens, UniProt Q92794, residues 1-181)", "technique": "protein binding microarray", "molecule type": "double-stranded DNA, one strand shown", "matrix": "in vitro", "concentration": "not given", "setting": "8-mer, flanks averaged, mean of 2 arrays, mostly near background", "baseline": "not given", "reading": "higher = stronger binding", "Residues (chain)": "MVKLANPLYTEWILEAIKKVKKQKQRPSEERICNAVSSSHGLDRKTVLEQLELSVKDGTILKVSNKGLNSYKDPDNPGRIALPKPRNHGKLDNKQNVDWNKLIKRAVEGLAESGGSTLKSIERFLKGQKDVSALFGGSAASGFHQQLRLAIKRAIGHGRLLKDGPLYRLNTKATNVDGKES"}
{"Oligonucleotide": "CTAGTTGC", "E-score": -0.113}
{"Oligonucleotide": "ATACCCGG", "E-score": 0.176}
{"Oligonucleotide": "CTGGTGGA", "E-score": -0.0987}
{"Oligonucleotide": "GACCATGA", "E-score": -0.0801}
{"Oligonucleotide": "AATCCTGT", "E-score": -0.0992}
{"data": "Study 3", "target": "RNA binding protein fox-1 homolog 2, RRM domain, GST-SBP tag (RBFOX2, Homo sapiens, UniProt O43251-10, residues 100-194)", "technique": "RNA Bind-n-Seq", "molecule type": "RNA", "matrix": "in vitro", "concentration": "365 nM", "setting": "natural RNA segment, single round, ends assumed", "baseline": "no-protein control", "reading": "higher = stronger binding", "constant ends, left off below": "GGGAGUUCUACAGUCCGACGAUC … UGGAAUUCUCGGGUGCCAA"}
{"Oligonucleotide": "AAGAAUAUGAAGCCAUGAAACUUGUCAACAUGCUUGAUAAACUUUCCAGGAGAGCAGAUGUGAAGGACCUGCACCAGGAUGGUGGUUAGCAACAGUGGCCCGUGCCAAAG", "RBNS enrichment (R)": 0.724}
{"Oligonucleotide": "GUAGUCUGACACUGGAGUCCCCAACCCACCCCAUUCCUGCCCUCAUCCUCAGCCCAUCAUUUGUGAACACUGGACUCUGAAAUAAAUGCUGCCUGUCACGUGGACACUUU", "RBNS enrichment (R)": 0.445}
{"Oligonucleotide": "CACCAAGUUCAGCCCAAAAUGAUAUUCUUUUCAGUCCUGUGGGGGAAGGACCGGCUUUAUCUCAUGAUGCCUUUCUGAGACUUGACCGUUAUGAGCUGAACAUAAAAAGU", "RBNS enrichment (R)": 0.775}
{"Oligonucleotide": "GCCGAGGUUUCUAGUGCUUCAUAGUGGCUCUUGUUCUGAGUUCUGUCCUGAGCCUCUUGUUACCUUGUUACUUCAGCCUAGAGGACUGAGAAUGGAGAGCCCGAGAAGUG", "RBNS enrichment (R)": 0.703}
{"Oligonucleotide": "UGAACUAACGUAUUCAAUAUUGAAUAUGUAGAUAUCAGUAGUCAAGUAGGAUAUUUCUUUAGAUUGCCACUUUUUUUAUUCCAGUUGUUUUAGGAAUAAAUGUCAGAUUU", "RBNS enrichment (R)": 0.5}
{"Oligonucleotide": "GUCCUGUGUUCAAGACACUGAAGCUAUCUCCCAUGUUCUGUGUGAGAUUUCUGAGUAAGAUCUGGCAAGUGAGGGAGCUUUUCUUGAGAGGGGAAGGCUACAUUUCUAUG", "RBNS enrichment (R)": 0.635}
{"Oligonucleotide": "AUGUGAAAUGGUUAUUUAUACUUAUAGAAAGUUUGUGAAAUUUGCACAGUUGUCUUUCAAAGGAUAGGAUCUAUCUUUUUUGGACUUCAGAUUGUUUUAAAGAACUGUAA", "RBNS enrichment (R)": 0.432}
{"data": "Other studies, line by line"}
{"Molecule": "PhoQ, residues 284 288 289 292 302 303 SLGVVW", "target": "PhoP, residues 12 14 15 18 19 LWHVM (Escherichia coli, UniProt P23836)", "test": "Sort-seq, measured: YFP reporter", "test system": "E. coli", "conditions": "PhoQ-PhoP variant library, with: 10 µM Mg2+", "scale": "baseline: high Mg2+ state, higher = stronger signaling", "quantity": "fold induction", "value": 16.2}
{"note": "For quick reference, copied from above (study 3):"}
{"Oligonucleotide": "AAGAAUAUGAAGCCAUGAAACUUGUCAACAUGCUUGAUAAACUUUCCAGGAGAGCAGAUGUGAAGGACCUGCACCAGGAUGGUGGUUAGCAACAGUGGCCCGUGCCAAAG", "RBNS enrichment (R)": 0.724}
{"Oligonucleotide": "GCCGAGGUUUCUAGUGCUUCAUAGUGGCUCUUGUUCUGAGUUCUGUCCUGAGCCUCUUGUUACCUUGUUACUUCAGCCUAGAGGACUGAGAAUGGAGAGCCCGAGAAGUG", "RBNS enrichment (R)": 0.703}
{"Oligonucleotide": "GUCCUGUGUUCAAGACACUGAAGCUAUCUCCCAUGUUCUGUGUGAGAUUUCUGAGUAAGAUCUGGCAAGUGAGGGAGCUUUUCUUGAGAGGGGAAGGCUACAUUUCUAUG", "RBNS enrichment (R)": 0.635}
